Results of several laboratories.
Each line is one published result; not all experiments were run side by side.
T1: RNA aptamer, 2'-F pyrimidines; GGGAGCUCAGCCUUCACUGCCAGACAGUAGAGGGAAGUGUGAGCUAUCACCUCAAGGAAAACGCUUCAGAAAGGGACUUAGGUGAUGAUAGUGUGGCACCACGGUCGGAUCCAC
T2: RNA aptamer, dimerized, 6-nt linker; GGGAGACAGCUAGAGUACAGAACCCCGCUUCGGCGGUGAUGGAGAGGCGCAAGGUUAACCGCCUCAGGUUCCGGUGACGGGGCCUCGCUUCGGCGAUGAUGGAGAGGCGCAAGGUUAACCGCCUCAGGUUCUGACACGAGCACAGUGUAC
T3: RNA aptamer; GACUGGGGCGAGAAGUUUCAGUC
T4: RNA aptamer; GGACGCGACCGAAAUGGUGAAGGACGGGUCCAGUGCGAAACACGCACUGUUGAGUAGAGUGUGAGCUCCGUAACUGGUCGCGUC
T5: RNA aptamer A9G; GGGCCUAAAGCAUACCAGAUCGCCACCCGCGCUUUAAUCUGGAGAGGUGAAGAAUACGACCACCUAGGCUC
T6: RNA aptamer truncated FMN aptamer; GGUACUUCGGGAAG
T7: RNA aptamer A50U; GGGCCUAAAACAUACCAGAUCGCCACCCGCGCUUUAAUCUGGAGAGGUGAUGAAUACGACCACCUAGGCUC
T8: RNA aptamer; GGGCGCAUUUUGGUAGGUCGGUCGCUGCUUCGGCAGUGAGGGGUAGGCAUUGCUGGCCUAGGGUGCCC
T9: RNA aptamer; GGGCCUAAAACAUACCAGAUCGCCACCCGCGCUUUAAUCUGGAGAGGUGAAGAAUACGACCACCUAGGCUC

SMILES	target	method	pH	temperature	setting	Kd
CN[C@@H]1[C@H](O[C@H]2[C@H](O[C@H]3[C@H](O)[C@@H](O)[C@H](N=C(N)N)[C@@H](O)[C@@H]3N=C(N)N)O[C@@H](C)[C@]2(O)C=NNC(=O)CCOCCOCCOCCOCCNC(=O)CCCC[C@@H]2SC[C@@H]3NC(=O)N[C@@H]32)O[C@@H](CO)[C@H](O)[C@H]1O	T1, RNA aptamer, 2'-F pyrimidines	SPR	–	–	apparent	212 nM
CCN(CC)c1ccc2c(-c3ccc(S(=O)(=O)NCCC(=O)NCCCC[C@H](NC(=O)CCNS(=O)(=O)c4ccc(-c5c6ccc(=[N+](CC)CC)cc-6oc6cc(N(CC)CC)ccc56)c(S(=O)(=O)[O-])c4)C(=O)NCc4cn(CCOCCOCCOCCNC(=O)CCCC[C@@H]5SC[C@@H]6NC(=O)N[C@@H]65)nn4)cc3S(=O)(=O)[O-])c3ccc(=[N+](CC)CC)cc-3oc2c1	T2, RNA aptamer, dimerized, 6-nt linker	fluorescence titration	pH 7.5	–	KCl 100 mM	73 nM
NC[C@@H]1O[C@H](O[C@H]2[C@@H](O)[C@H](O[C@@H]3[C@@H](O)[C@H](N)C[C@H](N)[C@H]3O[C@H]3O[C@H](CN)[C@@H](O)[C@H](O)[C@H]3N)O[C@@H]2CO)[C@H](N)[C@@H](O)[C@@H]1O	T3, RNA aptamer	ITC	–	–	NaCl 200 mM	34.1 nM
CN1C=CC(=Cc2sc3ccccc3[n+]2CC(=O)NCCOCCOCCOCCNC(=O)CCCC[C@@H]2SC[C@@H]3NC(=O)N[C@@H]32)c2ccccc21	T4, RNA aptamer	fluorescence titration	–	–	140 mM KCl, room temperature	830 nM
CN(C)[C@@H]1C(=O)C(C(N)=O)=C(O)[C@@]2(O)C(=O)C3=C(O)c4c(O)cccc4[C@@](C)(O)[C@H]3[C@H](O)[C@@H]12	T5, RNA aptamer A9G	fluorescence titration	pH 7.5	25 °C	MgCl2 10 mM	445 nM
Cc1cc2nc3c(=O)[nH]c(=O)nc-3n(C[C@H](O)[C@H](O)[C@H](O)COP(=O)(O)O)c2cc1C	T6, RNA aptamer truncated FMN aptamer	fluorescence quenching	–	–	–	4100 nM
CN(C)C1C(O)=C(C#N)C(=O)C2(O)C(O)=C3C(=O)c4c(O)cccc4C(C)(O)C3CC12 (stereo not shown)	T7, RNA aptamer A50U	fluorescence titration	pH 7.5	25 °C	MgCl2 10 mM	2570 nM
Nc1nc2c(ncn2[C@@H]2O[C@H](COP(=O)(O)OP(=O)(O)OP(=O)(O)O)[C@@H](O)[C@H]2O)c(=O)[nH]1	T8, RNA aptamer	ITC	pH 6.5	20 °C	NH4Cl 50 mM	3100 nM
CN(C)[C@@H]1C(=O)C(C(N)=O)=C(O)[C@@]2(O)C(=O)C3=C(O)c4c(O)ccc(Cl)c4[C@@](C)(O)[C@H]3C[C@@H]12	T9, RNA aptamer	fluorescence titration	pH 7.5	25 °C	MgCl2 10 mM	0.573 nM
Cc1cc2nc3c(=O)[nH]c(=O)nc-3n(C[C@H](O)[C@H](O)[C@H](O)COP(=O)(O)OP(=O)(O)OC[C@H]3O[C@@H](n4cnc5c(N)ncnc54)[C@H](O)[C@@H]3O)c2cc1C	T6, RNA aptamer truncated FMN aptamer	fluorescence quenching	–	–	–	12000 nM

Excerpt of the above:
SMILES	target	method	pH	temperature	setting	Kd
Cc1cc2nc3c(=O)[nH]c(=O)nc-3n(C[C@H](O)[C@H](O)[C@H](O)COP(=O)(O)O)c2cc1C	T6, RNA aptamer truncated FMN aptamer	fluorescence quenching	–	–	–	4100 nM
